Assay results pooled from the literature.
Every numbered part comes from another study and shows a few of its results, in no order. Positions count from the first letter of the parent shown.

Block 1
Target: CCNA2, cyclin fold, Cln2 fusion (human)
Technique: yeast growth competition, sequencing
Matrix: yeast
Setting: strong parent motif
Relative to: not given
Direction: higher = stronger binding
Starting sequence: viral docking peptide; YKVKRRLVFGADD
| Substitution | normalised enrichment score |
| --- | --- |
| YKVKKRLVFGADD [R5K] | 6.07 |
| YKVKRRLVFGAHD [D12H] | 6.29 |
| YKVKRRLVNGADD [F9N] | 0.208 |
| YKVKRRLVFFADD [G10F] | 5.85 |
| YKVKRRTVFGADD [L7T] | 0.717 |
| YCVKRRLVFGADD [K2C] | 5.98 |
| YKVKRRSVFGADD [L7S] | 0.574 |
| YKVKHRLVFGADD [R5H] | 2.45 |
| YKRKRRLVFGADD [V3R] | 4.17 |
| YKVKARLVFGADD [R5A] | 3.03 |
| YKVKRRAVFGADD [L7A] | 0.539 |
| YKVKRRLVFYADD [G10Y] | 5.51 |
| YKVKYRLVFGADD [R5Y] | 1.11 |
| YKVKRRWVFGADD [L7W] | 1.3 |
| YKVKKRLVLGADD [R5K F9L] | 2.15 |
| YKVKRRLVSGADD [F9S] | 0.573 |

Block 2
Target: Sal-like protein 4, full length isoform B (SALL4, Homo sapiens, UniProt Q9UJQ4-2, residues 1-616)
Technique: universal PBM
Form: double-stranded DNA, one strand shown
Matrix: in vitro
Tested at: not given
Setting: 8-mer, flanks averaged, mean of replicates
Direction: higher = stronger binding
| Oligonucleotide | E-score |
| --- | --- |
| CAATCTGG | -0.061 |
| CCCGTTCC | -0.216 |
| ATCTACTG | 0.101 |
| ATTTAGGG | 0.0662 |
| ACCGGTGC | -0.314 |
| AGGTTGAG | 0.0124 |
| AGCTTAGA | 0.0261 |
| GGCAGAAC | -0.0588 |

Block 3
Target: tungstate, free oxyanion
Technique: microfluidic competitive inhibition
Matrix: in vitro, cell-free expressed
Tested at: not given
Setting: derived from inhibition constants, unchanged parent 2230 nM
Direction: lower = stronger binding
Starting sequence: PafA, mature enzyme, eGFP fusion (Elizabethkingia meningoseptica, UniProt Q9KJX5); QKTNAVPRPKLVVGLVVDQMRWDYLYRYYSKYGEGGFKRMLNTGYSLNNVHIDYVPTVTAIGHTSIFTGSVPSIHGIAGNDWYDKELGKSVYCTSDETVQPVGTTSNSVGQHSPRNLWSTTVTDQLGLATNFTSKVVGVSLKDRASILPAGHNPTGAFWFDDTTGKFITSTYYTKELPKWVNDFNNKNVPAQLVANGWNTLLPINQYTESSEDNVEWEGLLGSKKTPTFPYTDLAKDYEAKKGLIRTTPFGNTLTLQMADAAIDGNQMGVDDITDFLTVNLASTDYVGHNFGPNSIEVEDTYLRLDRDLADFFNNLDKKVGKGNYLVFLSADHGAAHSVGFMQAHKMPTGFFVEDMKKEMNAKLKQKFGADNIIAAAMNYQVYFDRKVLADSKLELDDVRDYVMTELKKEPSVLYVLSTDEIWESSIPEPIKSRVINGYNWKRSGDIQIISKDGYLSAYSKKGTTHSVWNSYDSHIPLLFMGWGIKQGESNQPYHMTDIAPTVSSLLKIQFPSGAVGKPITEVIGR
| Substitution | oxyanion analog dissociation constant [µM] |
| --- | --- |
| R144G | > 211 |
| T255V | 2.75 |
| T121G | 1.87 |
| I499V | 2.43 |
| F158G | 1.28 |

Block 4
Target: Prothrombin, mature alpha-thrombin (F2, Homo sapiens, UniProt P00734)
Technique: aptamer microarray, sandwich
Form: DNA with 2'F-ANA
Matrix: in vitro
Tested at: 200 nM
Setting: whole 15-mer aptamer, many near background
Together with: Cy3 exosite-II aptamer, 400 nM
Direction: higher = stronger binding
Oligonucleotide: GGTTGGTGTGGTTGG
| Modification | mean fluorescence intensity |
| --- | --- |
| 2'F-ANA at 1 2 3 7 8 9 10 15 | 75.1 a.u. |
| 2'F-ANA at 1 5 6 8 12 14 | 43.8 a.u. |
| 2'F-ANA at 1 2 3 4 5 6 15 | 61.4 a.u. |
| 2'F-ANA at 1 4 6 11 12 14 15 | 74.9 a.u. |
| 2'F-ANA at 3 4 5 6 8 11 12 | 198 a.u. |
| 2'F-ANA at 2 4 6 10 14 15 | 56.7 a.u. |
| 2'F-ANA at 1 2 5 6 9 10 11 12 14 | 71 a.u. |
| 2'F-ANA at 1 7 9 10 13 14 15 | 60.5 a.u. |

Excerpt of the above (block 1):
| Substitution | normalised enrichment score |
| --- | --- |
| YCVKRRLVFGADD [K2C] | 5.98 |
| YKVKRRLVSGADD [F9S] | 0.573 |
| YKRKRRLVFGADD [V3R] | 4.17 |
| YKVKKRLVFGADD [R5K] | 6.07 |
| YKVKARLVFGADD [R5A] | 3.03 |
| YKVKYRLVFGADD [R5Y] | 1.11 |
